Assay results collected from several papers.
A part holds a random share of what one study measured.

Sample 1
Target: Interferon regulatory factor 5, full length, phosphomimetic (IRF5, Homo sapiens, UniProt Q13568-2, residues 1-514, K96S/S451D/S453D/S456D/S462D)
Method: protein-binding microarray
Molecule type: double-stranded DNA, one strand shown
Sample: in vitro
Tested at: 250 nM
Setting: 60-bp whole probe
With: salmon DNA 0.4 mg/ml
Relative to: random background probes
Reading: higher = stronger binding
All sequences stand within: GCCTAGCAC … GTCTTGATTCGCTTGACGCTGCTG
Oligonucleotide | log fluorescence [z-score]
TTAGGTCTGGGGTTTCGGTTAGTGCTA | 6.19
TCACCTATAGGTTCAACACTGTGCTAG | 0.00899
TTAGGTTTCCTTCTCCTGTAGTGCTAG | 0.92
TTAGGTATCGGGTATCGGTAAGTGCTA | 6.42
TCAAGACTCATAATGGCTAGGTGCTAG | -0.062
CAGCTTTTATCCCTGACAGAGTGCTAG | 0.141
GACGGTATAGGACTGGGGACGTGCTAG | -0.284
TCAGGTATCGACTTTCGGTTAGTGCTA | 10.4
TACCTTAGGTTTTCTGGTTCCGTGCTA | 0.334
TTAGAACTGGGTTTCGGTTAGTGCTAG | 8.49
TTAGGACTGGGTCTGGGTTAGTGCTAG | -0.566
GACGGACTGGAATTTCGGGACGTGCTA | 0.887
TCATGTATATATGTGTAACTGTGCTAG | 0.346
GACGATTTCGGTTTTCGAGACGTGCTA | 7.44
TCATTTTTCTAATTGAAACTGTGCTAG | 1.33
TTAGGTTCCGGTTACGGTTAGTGCTAG | 2.26
TTAGATCTCAGAATCGATTAGTGCTAG | 0.637
TCAAATTACCTTTTCACACTGTGCTAG | 0.705
GACTGTTTCGGGTTTCGGGACGTGCTA | 8.45
GACGGACTGGGTCTCAGGACGTGCTAG | -0.623
AGGCCCTTTGCTTTCCTGATGTGCTAG | -0.000322
GACGATTTCGGTACTGGAGACGTGCTA | 5.96
GACGATTTCAGTTCCGATACGTGCTAG | 2.54

Sample 2
Target: Histone acetyltransferase KAT6A, winged helix 1, GST fusion (KAT6A, Homo sapiens, UniProt Q92794, residues 1-85)
Method: protein binding microarray
Molecule type: double-stranded DNA, one strand shown
Sample: in vitro
Tested at: not given
Setting: 8-mer, flanks averaged, mean of 2 arrays, mostly near background
Relative to: not given
Reading: higher = stronger binding
Construct (chain): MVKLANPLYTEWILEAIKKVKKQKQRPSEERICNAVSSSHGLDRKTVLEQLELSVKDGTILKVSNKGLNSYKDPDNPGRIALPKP
Oligonucleotide | E-score
ATTTGCAA | -0.191
CTAATACC | 0.0602
ACACGTTC | -0.0137
ATCGAATA | -0.0675
CATTCACG | 0.0642
AAGCGATA | 0.0852
AAGAGTAA | -0.0807
ATATAGTC | -0.046
ATCATTAC | 0.0612
ACCTGTTC | -0.25
CCTCTGGA | -0.179
ACTTTCAG | -0.143
ATCGGAGC | 0.039
ACGAGAGG | -0.135
GCATAAGA | -0.0502
CATATAGA | 0.022
CGGCCAGA | 0.0816
GAGAGCCA | -0.126
CATCCAAA | -0.148
CACGTAGC | -0.0713
GCAGCCAC | -0.0496
AACCCAGC | -0.0749
ACGCCGTA | 0.356
CGCCCAAA | -0.0239
CGGCTAGA | 0.171

Sample 3
Target: Phosphate system positive regulatory protein PHO4, full length, GST-tagged (PHO4, Saccharomyces cerevisiae, UniProt P07270, residues 1-312)
Method: competition protein-binding microarray
Molecule type: double-stranded DNA, one strand shown
Sample: in vitro
Tested at: 2 µM
Setting: whole 60-bp probe, lowest competitor level
With: Cbf1 competitor, 0.05 µM
Reading: higher = stronger binding
Target sequence (chain): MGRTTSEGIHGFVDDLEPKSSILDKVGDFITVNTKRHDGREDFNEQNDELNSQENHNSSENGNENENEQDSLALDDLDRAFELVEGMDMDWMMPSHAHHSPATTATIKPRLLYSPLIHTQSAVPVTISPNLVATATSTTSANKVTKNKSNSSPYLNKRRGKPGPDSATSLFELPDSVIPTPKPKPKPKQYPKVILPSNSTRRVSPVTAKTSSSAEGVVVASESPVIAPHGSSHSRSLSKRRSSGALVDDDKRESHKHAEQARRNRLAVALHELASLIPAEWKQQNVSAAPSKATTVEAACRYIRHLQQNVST
Oligonucleotide | fluorescence intensity
TTAACATAATTAAAGCACGCAGCGATTGGGTATAATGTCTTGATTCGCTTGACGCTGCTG | 9870 a.u.
TGCGCAACAACTTGCGGCGTGGGTGTATGTCTAGAAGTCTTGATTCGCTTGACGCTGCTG | 8040 a.u.
GGCTTGTGTGAGTTCCACGTGCGGATGACTTAATAAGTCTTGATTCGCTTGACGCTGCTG | 18100 a.u.
GGCACCCGCGATTCACACGTGTCCAAAAGAGTTCCCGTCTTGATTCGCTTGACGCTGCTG | 16900 a.u.
TCCGTCAGTGTAGCGCGCGTGCGGACCAGAACGTCTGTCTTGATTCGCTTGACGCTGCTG | 9470 a.u.
AATACCCTGGCATCTCTCGTGACGGGTTACCATTTAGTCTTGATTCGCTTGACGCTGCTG | 4840 a.u.
CTTCTGTAAATTTGTCACTACACTTGACGCGCCCCGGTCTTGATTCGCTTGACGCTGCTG | 3760 a.u.
AGAGCATAGGTTTGACCCGTGATTGTGCCGACGTCAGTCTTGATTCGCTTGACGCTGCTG | 6170 a.u.
TGCGCAACAACTTGGTCCGTGGGTGTATGTCTAGAAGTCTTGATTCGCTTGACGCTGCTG | 6350 a.u.
ACAAGTGCCGACTGACTCGTGTCCTGGTAATAACAGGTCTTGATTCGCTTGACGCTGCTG | 9210 a.u.
GTCTTGTCTCATTTTCACGTGAGATTCCCCACTTCAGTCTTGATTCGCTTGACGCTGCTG | 8980 a.u.
CTGCTTGGCGTATGGGGCGTGCAAATAACTGTTCATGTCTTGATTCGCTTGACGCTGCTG | 9770 a.u.
TCGGCTATCTGTGAGTACGTGCGGACTTCCAACGTCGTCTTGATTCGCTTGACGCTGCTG | 7300 a.u.
CGGGGTTAAGTTTGGCAGGTGGGTGGCTTGCAGCAGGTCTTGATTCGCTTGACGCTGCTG | 7960 a.u.
GCGCTGCGCAATCTCAACGTGGTGAGGATCTTTGAAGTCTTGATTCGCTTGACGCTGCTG | 10200 a.u.
TTGACGGAAAAACGCTGTGTGACGGAGACTAGCCTGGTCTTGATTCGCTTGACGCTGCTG | 3810 a.u.
CGTATTGGTAACCATCACGTGCCGAGCAGTAGACCTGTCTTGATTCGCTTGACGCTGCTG | 15300 a.u.
CCTTGAATGATAAAACACGTTAAAGTTTCTAGATCAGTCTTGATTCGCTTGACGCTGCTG | 5910 a.u.
CTTCTGTAAATTTGAGAGGTGGGTGGACGCGCCCCGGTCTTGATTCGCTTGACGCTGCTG | 3980 a.u.
GTCAATCGATTGGATCAGGTGAGGAAGTACTCAGCGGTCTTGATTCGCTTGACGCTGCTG | 2980 a.u.
TGAAAAGTGTGCTGGCACGGGATCGTTACTAATCCAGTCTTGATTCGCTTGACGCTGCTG | 10400 a.u.
AGTTGTTGCTCGTCGCTCGTGTAGGACTGTAGTTGCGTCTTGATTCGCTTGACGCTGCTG | 6140 a.u.
TTCCGGGGAACGTCCCACGTTCACAACCGCGCCGCGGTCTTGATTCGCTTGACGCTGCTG | 11100 a.u.
AAATTACTAAGTTTTCACGTGGCATACCCCGTATGAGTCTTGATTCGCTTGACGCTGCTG | 14400 a.u.
ATGCCATGGGTGTCTCATGTGGTCCAGTGAGTTGATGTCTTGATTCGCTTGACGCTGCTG | 7980 a.u.

Sample 4
Target: RNA binding protein fox-1 homolog 2, RRM domain, GST-SBP tag (RBFOX2, Homo sapiens, UniProt O43251-10, residues 100-194)
Method: RNA Bind-n-Seq
Molecule type: RNA
Sample: in vitro
Tested at: 365 nM
Setting: natural RNA segment, single round, ends assumed
Relative to: no-protein control
Reading: higher = stronger binding
Target sequence (chain): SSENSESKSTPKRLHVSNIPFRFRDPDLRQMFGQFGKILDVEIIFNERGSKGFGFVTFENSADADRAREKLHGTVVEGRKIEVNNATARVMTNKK
Oligonucleotide | RBNS enrichment (R)
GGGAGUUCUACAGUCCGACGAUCGGAAAAUCAAGAUGUGGCUGAAGAUCAGAGGCUCAGUUAGCAACCUGUGUUGUAGCAGUGAUGUCAGUCCAUUGAUUGUCUUUAGAGAGUUAAUGUUACAAAAAAGAAUUUGGAAUUCUCGGGUGCCAA | 0.655
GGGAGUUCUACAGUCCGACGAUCAAGCACAUUUUACCAUUGCUAUUGGGAGGAAGCAGAAGGCAGAUUGGAAAGAACAGCGAGUAAGUGCAAGUUGUGCUCCUUCCUUUUCCCUACCUGGUACCCUCCCUGGGUGGAAUUCUCGGGUGCCAA | 0.54
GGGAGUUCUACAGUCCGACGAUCUUUUCAUCAGGAAAGGAGCACUGUGGGAAGAGCCCAGUAUUCACAUUUUUUCCCCAUUUUUCAGAAGCGACAUUUCAUAUAUAGGUGCCAAAAGUGAAUCGGGGUGCGGAUGGAAUUCUCGGGUGCCAA | 0.159
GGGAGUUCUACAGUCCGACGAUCUUGACACUUACUUUCCCAUGAACACUUGCAGUUGCUAAGGGACUUUAUUUUGUAACAUAUCAAUUAUAAAUAUUGUAUUUAUCUUUGAAAUUUUGUACAUUGCUUUUCCCUGGAAUUCUCGGGUGCCAA | 0.48
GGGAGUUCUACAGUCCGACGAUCCCUAACAAGCAAUCUGGGACCUGAUUUUCCACCUUUUUUCUCUUUUCUUCCCUUCCUUUGUUUUCAUAAGCCUUUGGUAUCUUUCCUGCCCUUUUCCUUUGUGUACUCUAUGGAAUUCUCGGGUGCCAA | 1.35
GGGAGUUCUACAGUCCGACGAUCCUAACGAAACUCUCAAAUUCAUUAUCUACUUCAUGAGAAUUUAUUUGUAUUCAUUAACAUUAGUAAUACCUAUUUUUCUUAAGAGCCUUCUUUUUUCCCUUUUGUUUCUUUGGAAUUCUCGGGUGCCAA | 1.11
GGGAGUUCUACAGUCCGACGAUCCUGAUAGUGCAGAGACUUACCAGAAGACACAAGGAAUUGUACUGAAGAGCUAUUACAAUCCAAAUAUUGCCGUUUCAUAAAUGUAAUAAGUAAUACUAAUUCACAGAGUAUGGAAUUCUCGGGUGCCAA | 0.626
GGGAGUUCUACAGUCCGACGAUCUGAAAUGUGUCCACAUUCCUCUUGAGUCUUUUGAUGCAGACAAAGAAGAUAUAGCAGAAUCUACCCUUCCAGGAAGACAUACAGUUGAAAUGCUGGUCAUUUCCUUUGCAUGGAAUUCUCGGGUGCCAA | 0.706
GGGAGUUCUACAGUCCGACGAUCUAAAGAUAUUUAAUGUUCUGUUUAUUUAAUUGCUUCUUAAAUUGAUAUGAUUUUCUUAUAAAACAGAAAAGAAUUAUAAGAAUAUAUUGAAAAUAAAAGAAUUGAAAGGUUGGAAUUCUCGGGUGCCAA | 0.819

Repeated from above (sample 1):
Oligonucleotide | log fluorescence [z-score]
TACCTTAGGTTTTCTGGTTCCGTGCTA | 0.334
TTAGAACTGGGTTTCGGTTAGTGCTAG | 8.49
TTAGGACTGGGTCTGGGTTAGTGCTAG | -0.566
GACGGACTGGAATTTCGGGACGTGCTA | 0.887
TCATGTATATATGTGTAACTGTGCTAG | 0.346
GACGATTTCGGTTTTCGAGACGTGCTA | 7.44
TCATTTTTCTAATTGAAACTGTGCTAG | 1.33
